# Published values collected from several papers.
# Every numbered part comes from another study and shows a few of its results, in no order. Values joined by “and” are separate records of one study, mostly repeats; a detail may differ.
# Chain of UniProt P31751 (whole entry, looked up): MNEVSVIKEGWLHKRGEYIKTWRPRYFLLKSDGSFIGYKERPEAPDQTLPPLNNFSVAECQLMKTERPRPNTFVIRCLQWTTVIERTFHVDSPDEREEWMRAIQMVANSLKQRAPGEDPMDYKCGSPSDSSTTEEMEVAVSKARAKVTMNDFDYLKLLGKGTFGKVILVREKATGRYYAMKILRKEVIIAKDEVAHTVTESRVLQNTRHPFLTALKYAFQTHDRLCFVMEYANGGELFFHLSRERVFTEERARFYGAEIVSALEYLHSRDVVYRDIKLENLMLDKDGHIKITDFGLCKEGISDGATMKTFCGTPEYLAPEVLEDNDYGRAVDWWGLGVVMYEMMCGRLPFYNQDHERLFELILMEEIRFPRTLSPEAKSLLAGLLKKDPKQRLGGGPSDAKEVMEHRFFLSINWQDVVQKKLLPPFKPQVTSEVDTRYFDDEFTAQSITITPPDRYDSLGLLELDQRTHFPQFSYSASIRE
# Chain of UniProt O75716 (whole entry, looked up): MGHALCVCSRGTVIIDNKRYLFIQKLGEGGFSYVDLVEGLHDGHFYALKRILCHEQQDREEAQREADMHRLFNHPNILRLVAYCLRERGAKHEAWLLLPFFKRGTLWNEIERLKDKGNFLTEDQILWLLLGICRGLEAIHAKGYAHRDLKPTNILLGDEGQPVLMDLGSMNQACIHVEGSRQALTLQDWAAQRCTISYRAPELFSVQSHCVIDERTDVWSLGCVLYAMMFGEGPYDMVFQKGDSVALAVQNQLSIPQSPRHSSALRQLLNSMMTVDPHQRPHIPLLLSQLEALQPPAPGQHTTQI
# Chain of UniProt Q8TF76 (whole entry, looked up): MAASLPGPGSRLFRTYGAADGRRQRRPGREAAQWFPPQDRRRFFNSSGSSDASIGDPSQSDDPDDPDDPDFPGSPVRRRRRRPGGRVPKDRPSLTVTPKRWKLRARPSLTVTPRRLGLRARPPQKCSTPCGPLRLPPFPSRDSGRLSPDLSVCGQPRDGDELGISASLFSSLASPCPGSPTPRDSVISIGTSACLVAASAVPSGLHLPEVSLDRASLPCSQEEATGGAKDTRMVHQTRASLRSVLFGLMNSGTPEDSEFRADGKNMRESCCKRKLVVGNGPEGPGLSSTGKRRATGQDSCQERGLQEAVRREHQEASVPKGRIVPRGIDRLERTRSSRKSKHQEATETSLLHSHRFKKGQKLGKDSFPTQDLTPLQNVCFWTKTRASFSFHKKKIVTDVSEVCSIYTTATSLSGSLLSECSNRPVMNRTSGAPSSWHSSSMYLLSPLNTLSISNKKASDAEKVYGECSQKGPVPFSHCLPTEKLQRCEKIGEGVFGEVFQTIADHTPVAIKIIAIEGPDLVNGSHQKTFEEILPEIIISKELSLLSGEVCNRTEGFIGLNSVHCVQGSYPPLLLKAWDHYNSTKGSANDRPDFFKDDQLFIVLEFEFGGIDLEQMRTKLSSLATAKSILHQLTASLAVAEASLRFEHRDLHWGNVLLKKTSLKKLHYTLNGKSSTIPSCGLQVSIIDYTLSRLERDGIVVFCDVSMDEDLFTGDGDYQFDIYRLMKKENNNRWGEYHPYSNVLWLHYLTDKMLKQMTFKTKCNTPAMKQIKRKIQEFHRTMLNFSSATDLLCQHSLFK
# Chain of UniProt P45985 (whole entry, looked up): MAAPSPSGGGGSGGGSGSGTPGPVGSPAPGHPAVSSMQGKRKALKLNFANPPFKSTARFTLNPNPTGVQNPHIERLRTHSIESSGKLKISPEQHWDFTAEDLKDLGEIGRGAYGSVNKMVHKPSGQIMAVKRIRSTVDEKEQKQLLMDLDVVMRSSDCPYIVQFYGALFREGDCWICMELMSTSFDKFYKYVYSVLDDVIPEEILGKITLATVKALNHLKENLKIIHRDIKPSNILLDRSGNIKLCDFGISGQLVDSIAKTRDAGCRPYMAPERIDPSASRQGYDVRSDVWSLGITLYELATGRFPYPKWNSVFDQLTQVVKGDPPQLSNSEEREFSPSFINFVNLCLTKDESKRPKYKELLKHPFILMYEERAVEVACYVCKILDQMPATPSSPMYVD

# Sample 1
# Structure (SMILES): CN1CCN(C(=O)c2ccc(NC(=O)Nc3ccc(N(C)c4ccnc(Nc5ccc(CS(C)(=O)=O)cc5)n4)cc3)cc2)CC1
# Concentration: 1 µM
target,remaining activity
"STK11 (Homo sapiens, UniProt Q15831)",76%
"PRKACB (Homo sapiens, UniProt P22694)",100%
"CSF1R (Homo sapiens, UniProt P07333)",0%
"PDGFRB (Homo sapiens, UniProt P09619)",0%

# Sample 2
# Target: Calcium/calmodulin-dependent protein kinase type II subunit alpha (CAMK2A, Homo sapiens, UniProt Q9UQM7)
# Chain of UniProt Q9UQM7 (whole entry, looked up): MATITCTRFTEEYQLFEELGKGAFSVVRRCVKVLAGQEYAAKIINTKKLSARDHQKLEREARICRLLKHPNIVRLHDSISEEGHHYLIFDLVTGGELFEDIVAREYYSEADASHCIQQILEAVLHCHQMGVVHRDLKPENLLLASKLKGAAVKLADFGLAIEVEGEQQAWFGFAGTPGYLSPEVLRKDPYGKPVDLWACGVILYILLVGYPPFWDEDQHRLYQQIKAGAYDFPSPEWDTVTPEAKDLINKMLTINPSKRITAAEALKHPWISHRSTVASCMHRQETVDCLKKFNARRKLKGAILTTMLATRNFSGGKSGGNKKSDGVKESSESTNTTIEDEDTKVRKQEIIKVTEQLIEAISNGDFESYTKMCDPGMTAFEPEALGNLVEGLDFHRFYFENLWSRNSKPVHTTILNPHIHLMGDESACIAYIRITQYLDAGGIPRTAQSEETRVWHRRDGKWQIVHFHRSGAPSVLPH
# Observed: enzyme activity
# Mode: inhibitor
# Concentration: 10 µM
SMILES,inhibition [%]
CCn1nc(C(=O)O)c(=O)c2cc3c(cc21)OCO3,-7
CC1(C)C[C@H]2C3=CC[C@@H]4[C@@]5(C)CC[C@H](O)[C@@](C)(CO)[C@@H]5CC[C@@]4(C)[C@]3(C)C[C@H](O)[C@@]2(CO)[C@@H](O)[C@@H]1O,-33
COc1ccc(CCNC(=O)/C=C/c2ccc(O)c(O)c2)cc1,-13

# Sample 3
# Structure (SMILES): CC(=O)C1=C(C)N(c2cccc(C(F)(F)F)c2)C(=O)N[C@@H]1c1ccc(C#N)nc1
# Concentration: 1 µM
target,observed,method,remaining binding [%]
"EGFR (Homo sapiens, UniProt P00533, del747-750/T751S)",cell-free assay,competition with immobilised ligand,100
"PRKD3 (Homo sapiens, UniProt O94806)",cell-free assay,competition with immobilised ligand,78
"MARK4 (Homo sapiens, UniProt Q96L34)",cell-free assay,competition with immobilised ligand,100
"STK16 (Homo sapiens, UniProt O75716)",cell-free assay,competition with immobilised ligand,84.6
"SRPK1 (Homo sapiens, UniProt Q96SB4)",cell-free assay,competition with immobilised ligand,67.5
"CDK19 (Homo sapiens, UniProt Q9BWU1)",,competition binding,96.9
"HASPIN (Homo sapiens, UniProt Q8TF76)",cell-free assay,competition with immobilised ligand,100
"Ribosomal protein S6 kinase alpha-2, N-terminal kinase domain (RPS6KA2, Homo sapiens, UniProt Q15349)",cell-free assay,competition with immobilised ligand,72.8
"TAOK3 (Homo sapiens, UniProt Q9H2K8)",cell-free assay,competition with immobilised ligand,73
"MAP3K3 (Homo sapiens, UniProt Q99759)",cell-free assay,competition with immobilised ligand,100
"BMPR2 (Homo sapiens, UniProt Q13873)",cell-free assay,competition with immobilised ligand,100
"AKT2 (Homo sapiens, UniProt P31751)",cell-free assay,competition with immobilised ligand,100
"DYRK1B (Homo sapiens, UniProt Q9Y463)",cell-free assay,competition with immobilised ligand,100
"MET (Homo sapiens, UniProt P08581, Y1235D)",cell-free assay,competition with immobilised ligand,100
"HCK (Homo sapiens, UniProt P08631)",cell-free assay,competition with immobilised ligand,87.7
"TXK (Homo sapiens, UniProt P42681)",binding,competition with immobilised ligand,100
"STK32C (Homo sapiens, UniProt Q86UX6)",cell-free assay,competition with immobilised ligand,94.1
"MAP2K1 (Homo sapiens, UniProt Q02750)",cell-free assay,competition with immobilised ligand,93.3
"Receptor-type tyrosine-protein kinase FLT3, autoinhibited (FLT3, Homo sapiens, UniProt P36888)",cell-free assay,competition with immobilised ligand,82.9
"EGFR (Homo sapiens, UniProt P00533, T790M)",cell-free assay,competition with immobilised ligand,67.2
"MET (Homo sapiens, UniProt P08581, M1250T)",cell-free assay,competition with immobilised ligand,100
"SRC (Homo sapiens, UniProt P12931)",cell-free assay,competition with immobilised ligand,95.9
"MAP2K4 (Homo sapiens, UniProt P45985)",cell-free assay,competition with immobilised ligand,98.1
"FGFR1 (Homo sapiens, UniProt P11362)",cell-free assay,competition with immobilised ligand,100
"GSK3B (Homo sapiens, UniProt P49841)",cell-free assay,competition with immobilised ligand,100

# Sample 4
# Cell line: mouse MPNST tumor cells
# Method: high-content nuclear imaging
# Item: cell number
# Concentration: 10 µM
# Time: 12 h
# Notes: mean of 2 replicates
# Relative to: plate mean
# Direction: higher = more cells
SMILES,nuclei count
CCN1CC(CCN2CCOCC2)C(c2ccccc2)(c2ccccc2)C1=O (stereo not shown),0.794 z-score and 0.914 z-score
CC(C)NCC(O)c1ccc(NS(C)(=O)=O)cc1 (stereo not shown),0.678 z-score
O=C(CC12CC3CC(CC(C3)C1)C2)Nc1cccc2nc(NCCNCCO)ccc12,4.31 z-score
C[C@@H]1C[C@H]2[C@@H]3C[C@H](F)C4=CC(=O)C=C[C@]4(C)[C@@]3(Cl)[C@@H](O)C[C@]2(C)[C@H]1C(=O)COC(=O)C(C)(C)C,3.04 z-score
c1ccc2c(Oc3nc(Nc4ccc(N5CCOCC5)cc4)c4ncn(C5CCCCC5)c4n3)cccc2c1,1.57 z-score
CC1(C)S[C@@H]2[C@H](NC(=O)Cc3ccccc3)C(=O)N2[C@H]1C(=O)O,1.5 z-score
CN[C@H]1CC[C@@H](c2ccc(Cl)c(Cl)c2)c2ccccc21,-5.69 z-score

# Sample 5
# Target: DNA polymerase theta, ATPase domain (POLQ, Homo sapiens, UniProt O75417)
# Chain of UniProt O75417 (whole entry, unmodified, looked up): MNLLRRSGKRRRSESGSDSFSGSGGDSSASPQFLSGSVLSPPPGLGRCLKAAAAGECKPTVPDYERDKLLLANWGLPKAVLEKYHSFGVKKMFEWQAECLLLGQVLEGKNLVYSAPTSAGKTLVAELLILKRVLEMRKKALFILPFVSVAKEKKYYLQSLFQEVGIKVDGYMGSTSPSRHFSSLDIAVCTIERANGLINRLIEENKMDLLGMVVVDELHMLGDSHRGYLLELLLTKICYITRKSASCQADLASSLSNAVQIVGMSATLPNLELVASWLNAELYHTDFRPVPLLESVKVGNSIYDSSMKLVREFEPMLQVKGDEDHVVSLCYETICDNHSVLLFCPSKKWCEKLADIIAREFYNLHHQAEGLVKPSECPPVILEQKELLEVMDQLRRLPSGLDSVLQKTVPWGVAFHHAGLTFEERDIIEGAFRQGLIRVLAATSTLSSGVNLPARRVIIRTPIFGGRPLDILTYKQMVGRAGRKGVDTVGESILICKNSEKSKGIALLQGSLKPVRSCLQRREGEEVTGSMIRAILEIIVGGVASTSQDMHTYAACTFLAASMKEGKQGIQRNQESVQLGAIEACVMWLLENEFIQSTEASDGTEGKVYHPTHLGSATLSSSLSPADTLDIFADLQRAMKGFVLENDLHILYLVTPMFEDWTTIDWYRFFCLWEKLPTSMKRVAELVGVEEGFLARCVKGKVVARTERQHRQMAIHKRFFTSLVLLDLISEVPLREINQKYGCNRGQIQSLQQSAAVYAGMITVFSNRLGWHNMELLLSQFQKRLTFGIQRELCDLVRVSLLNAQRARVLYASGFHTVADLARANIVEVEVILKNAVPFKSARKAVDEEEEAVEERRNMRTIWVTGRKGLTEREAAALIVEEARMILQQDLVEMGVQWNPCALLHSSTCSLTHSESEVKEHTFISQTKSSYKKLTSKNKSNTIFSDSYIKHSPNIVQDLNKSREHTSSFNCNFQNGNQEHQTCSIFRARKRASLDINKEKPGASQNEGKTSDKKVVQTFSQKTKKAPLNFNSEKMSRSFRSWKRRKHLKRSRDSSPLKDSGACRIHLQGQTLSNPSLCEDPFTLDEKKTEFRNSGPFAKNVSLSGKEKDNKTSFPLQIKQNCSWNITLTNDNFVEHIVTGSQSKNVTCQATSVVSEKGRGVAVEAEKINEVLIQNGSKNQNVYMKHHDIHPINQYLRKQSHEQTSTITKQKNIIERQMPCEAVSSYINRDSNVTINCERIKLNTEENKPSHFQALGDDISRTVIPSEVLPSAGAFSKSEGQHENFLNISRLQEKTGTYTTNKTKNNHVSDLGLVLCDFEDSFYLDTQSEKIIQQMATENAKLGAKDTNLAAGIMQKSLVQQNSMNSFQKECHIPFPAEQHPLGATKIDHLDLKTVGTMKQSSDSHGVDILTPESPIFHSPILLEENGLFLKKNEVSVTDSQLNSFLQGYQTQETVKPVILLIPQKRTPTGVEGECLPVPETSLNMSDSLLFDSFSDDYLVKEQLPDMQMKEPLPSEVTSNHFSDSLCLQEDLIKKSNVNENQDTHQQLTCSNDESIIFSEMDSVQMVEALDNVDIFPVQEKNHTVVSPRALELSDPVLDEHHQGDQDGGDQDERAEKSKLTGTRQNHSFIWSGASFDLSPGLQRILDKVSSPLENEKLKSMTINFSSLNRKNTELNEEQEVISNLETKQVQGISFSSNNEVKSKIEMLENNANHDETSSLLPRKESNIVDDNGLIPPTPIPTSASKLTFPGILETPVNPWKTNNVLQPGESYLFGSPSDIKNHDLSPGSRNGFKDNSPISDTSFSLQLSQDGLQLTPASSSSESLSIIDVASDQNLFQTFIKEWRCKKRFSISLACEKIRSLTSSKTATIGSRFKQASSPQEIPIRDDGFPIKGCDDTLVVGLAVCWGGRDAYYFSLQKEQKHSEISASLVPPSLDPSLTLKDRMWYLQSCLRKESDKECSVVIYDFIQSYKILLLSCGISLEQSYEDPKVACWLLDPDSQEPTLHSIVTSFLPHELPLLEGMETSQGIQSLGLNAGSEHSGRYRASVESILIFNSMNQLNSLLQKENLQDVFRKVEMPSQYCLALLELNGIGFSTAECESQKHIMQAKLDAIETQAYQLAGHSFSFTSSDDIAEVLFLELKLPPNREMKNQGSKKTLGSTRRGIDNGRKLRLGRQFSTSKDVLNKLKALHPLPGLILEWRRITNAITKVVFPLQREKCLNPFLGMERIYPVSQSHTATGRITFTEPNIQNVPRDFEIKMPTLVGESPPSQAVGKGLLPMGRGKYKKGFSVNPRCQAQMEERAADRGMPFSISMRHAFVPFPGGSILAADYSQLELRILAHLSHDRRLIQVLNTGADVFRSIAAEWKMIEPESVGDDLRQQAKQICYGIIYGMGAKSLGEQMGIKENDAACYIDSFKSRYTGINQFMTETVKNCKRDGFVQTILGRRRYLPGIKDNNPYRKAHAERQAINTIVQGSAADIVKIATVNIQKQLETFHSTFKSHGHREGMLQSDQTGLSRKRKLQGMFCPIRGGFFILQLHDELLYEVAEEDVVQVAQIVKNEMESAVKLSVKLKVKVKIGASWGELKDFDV
# Observed: enzyme activity
# Mode: inhibitor
# Concentration: 77 µM
# Relative to: untreated
Structure (SMILES),remaining activity
C[C@@H]1C(=O)NC2=Nc3cccc(Cl)c3CN21,108%
N#C/C(=C\c1ccc(O)c(O)c1)C(=O)c1ccc(O)c(O)c1,81.2%
C=C1CC[C@@H]2[C@](C)(CO)[C@H](O)CC[C@@]2(C)[C@@H]1C/C=C1/C(=O)OC[C@H]1O,102%
CN1CCC(NC(=O)c2cc(-c3c(O)cc(O)cc3Oc3ccc([N+](=O)[O-])cc3)on2)CC1,104%
CC(C)NC[C@@H](O)c1ccc(O)c(O)c1,100%
CC(=O)N[C@@H](CC(=O)N[C@@H](CCC(=O)O)C(=O)O)C(=O)O,95.5%

# Sample 6
# Observed: AlphaScreen signal
# Method: AlphaScreen counter screen
# Sample: His6 peptide without bromodomain
# Concentration: 50 µM
# Notes: assay interference check
Structure (SMILES),inhibition [%]
O=C(NNC(=O)c1c(O)c2ccccc2[nH]c1=O)c1ccccc1[N+](=O)[O-],12.2
Cc1cc(C(C)Nc2ccccc2)c2nc(N3CCOCC3)cc(=O)n2c1 (stereo not shown),33.6
CCCS(=O)(=O)Nc1ccc(F)c(C(=O)c2c[nH]c3ncc(-c4ccc(Cl)cc4)cc23)c1F,31.1
CC(c1ccccc1)n1c(=O)[nH]c2ncc(-c3cccnc3)nc21 (stereo not shown),18.8
Nc1cc2ncnc(Nc3cccc(Br)c3)c2cc1N,62.5
Cc1nc(N)sc1-c1csc(Nc2ccc(Cl)cc2)n1,80.5
Oc1cc(O)cc(/C=C/c2ccc(O)c(O)c2)c1,29.4

# Repeated from above (sample 5):
Structure (SMILES),remaining activity
N#C/C(=C\c1ccc(O)c(O)c1)C(=O)c1ccc(O)c(O)c1,81.2%
C=C1CC[C@@H]2[C@](C)(CO)[C@H](O)CC[C@@]2(C)[C@@H]1C/C=C1/C(=O)OC[C@H]1O,102%
CN1CCC(NC(=O)c2cc(-c3c(O)cc(O)cc3Oc3ccc([N+](=O)[O-])cc3)on2)CC1,104%
CC(C)NC[C@@H](O)c1ccc(O)c(O)c1,100%
CC(=O)N[C@@H](CC(=O)N[C@@H](CCC(=O)O)C(=O)O)C(=O)O,95.5%
